Published values from different studies.
Values joined by “and” are separate records of one study, mostly repeats; a detail may differ. Numbers after ± are the reported error.
T1: ssDNA, aptamer; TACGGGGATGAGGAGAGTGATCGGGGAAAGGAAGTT
UniProt Q9NYV8, sequence (whole entry, unmodified, looked up): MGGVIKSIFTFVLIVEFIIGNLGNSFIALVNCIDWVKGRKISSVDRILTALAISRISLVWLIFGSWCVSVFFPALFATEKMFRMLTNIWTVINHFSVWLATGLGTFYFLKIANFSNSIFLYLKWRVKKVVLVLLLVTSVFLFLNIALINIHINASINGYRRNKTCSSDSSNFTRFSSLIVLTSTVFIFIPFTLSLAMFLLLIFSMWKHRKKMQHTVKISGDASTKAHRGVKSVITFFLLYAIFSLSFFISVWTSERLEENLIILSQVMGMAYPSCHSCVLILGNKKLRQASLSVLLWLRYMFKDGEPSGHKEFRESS
UniProt P51575, sequence (whole entry, unmodified, looked up): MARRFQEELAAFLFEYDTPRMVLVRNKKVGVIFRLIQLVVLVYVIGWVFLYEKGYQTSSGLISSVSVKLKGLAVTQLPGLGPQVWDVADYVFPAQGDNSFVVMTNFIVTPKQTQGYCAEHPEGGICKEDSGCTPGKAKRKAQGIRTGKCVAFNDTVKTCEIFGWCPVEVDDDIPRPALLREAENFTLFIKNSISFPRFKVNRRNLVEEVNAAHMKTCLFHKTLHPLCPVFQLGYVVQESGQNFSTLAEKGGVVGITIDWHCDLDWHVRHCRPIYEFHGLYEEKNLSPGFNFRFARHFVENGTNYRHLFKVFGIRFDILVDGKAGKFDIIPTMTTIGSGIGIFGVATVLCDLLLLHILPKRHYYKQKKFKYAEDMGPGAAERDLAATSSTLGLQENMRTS
UniProt Q96NY8, sequence (whole entry, looked up): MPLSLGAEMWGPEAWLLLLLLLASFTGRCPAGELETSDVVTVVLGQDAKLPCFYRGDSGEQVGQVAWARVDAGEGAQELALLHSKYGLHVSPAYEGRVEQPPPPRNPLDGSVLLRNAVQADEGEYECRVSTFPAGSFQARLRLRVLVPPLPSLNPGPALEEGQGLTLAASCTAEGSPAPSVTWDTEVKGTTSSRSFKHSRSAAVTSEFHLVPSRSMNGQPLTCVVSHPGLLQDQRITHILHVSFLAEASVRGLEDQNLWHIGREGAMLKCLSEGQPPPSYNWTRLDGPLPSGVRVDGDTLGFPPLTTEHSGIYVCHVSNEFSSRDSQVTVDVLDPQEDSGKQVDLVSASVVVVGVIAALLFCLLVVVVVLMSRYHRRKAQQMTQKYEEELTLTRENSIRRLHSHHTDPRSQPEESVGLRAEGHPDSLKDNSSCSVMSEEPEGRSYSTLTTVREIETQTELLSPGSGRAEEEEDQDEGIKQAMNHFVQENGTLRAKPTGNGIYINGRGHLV
UniProt Q16774, sequence (whole entry, unmodified, looked up): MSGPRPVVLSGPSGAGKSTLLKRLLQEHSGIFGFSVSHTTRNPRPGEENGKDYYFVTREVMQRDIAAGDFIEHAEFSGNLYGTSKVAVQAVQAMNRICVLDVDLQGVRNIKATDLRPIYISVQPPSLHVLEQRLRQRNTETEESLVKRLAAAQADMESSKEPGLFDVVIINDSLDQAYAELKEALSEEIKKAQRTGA
UniProt Q07011, sequence (whole entry, unmodified, looked up): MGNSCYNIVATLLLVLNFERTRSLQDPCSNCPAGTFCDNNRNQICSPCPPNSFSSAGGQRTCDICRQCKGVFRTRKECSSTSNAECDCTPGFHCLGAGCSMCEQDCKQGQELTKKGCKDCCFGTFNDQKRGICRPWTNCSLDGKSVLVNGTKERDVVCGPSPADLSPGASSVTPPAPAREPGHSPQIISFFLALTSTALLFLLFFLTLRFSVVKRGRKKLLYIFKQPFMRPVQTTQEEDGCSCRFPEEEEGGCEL
UniProt Q8TDS7, sequence (whole entry, looked up): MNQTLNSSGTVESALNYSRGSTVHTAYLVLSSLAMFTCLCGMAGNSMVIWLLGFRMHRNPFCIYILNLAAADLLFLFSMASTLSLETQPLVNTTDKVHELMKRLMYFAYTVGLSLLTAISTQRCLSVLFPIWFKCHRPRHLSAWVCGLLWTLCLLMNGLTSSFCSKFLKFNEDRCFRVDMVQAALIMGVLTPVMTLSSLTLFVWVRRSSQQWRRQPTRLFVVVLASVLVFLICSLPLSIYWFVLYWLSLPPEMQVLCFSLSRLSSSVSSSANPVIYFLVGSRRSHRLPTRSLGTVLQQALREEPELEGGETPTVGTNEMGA
UniProt Q8IUN9, sequence (whole entry, unmodified, looked up): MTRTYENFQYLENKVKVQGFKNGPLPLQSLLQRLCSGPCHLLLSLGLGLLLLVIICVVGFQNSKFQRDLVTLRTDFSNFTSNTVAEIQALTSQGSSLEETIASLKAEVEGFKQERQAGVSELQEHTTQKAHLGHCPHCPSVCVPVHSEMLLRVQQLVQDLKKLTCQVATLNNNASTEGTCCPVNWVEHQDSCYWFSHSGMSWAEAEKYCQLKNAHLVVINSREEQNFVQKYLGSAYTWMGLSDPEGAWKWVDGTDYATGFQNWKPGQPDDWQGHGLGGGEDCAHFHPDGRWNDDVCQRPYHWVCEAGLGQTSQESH
UniProt P0A8T7, sequence (whole entry, looked up): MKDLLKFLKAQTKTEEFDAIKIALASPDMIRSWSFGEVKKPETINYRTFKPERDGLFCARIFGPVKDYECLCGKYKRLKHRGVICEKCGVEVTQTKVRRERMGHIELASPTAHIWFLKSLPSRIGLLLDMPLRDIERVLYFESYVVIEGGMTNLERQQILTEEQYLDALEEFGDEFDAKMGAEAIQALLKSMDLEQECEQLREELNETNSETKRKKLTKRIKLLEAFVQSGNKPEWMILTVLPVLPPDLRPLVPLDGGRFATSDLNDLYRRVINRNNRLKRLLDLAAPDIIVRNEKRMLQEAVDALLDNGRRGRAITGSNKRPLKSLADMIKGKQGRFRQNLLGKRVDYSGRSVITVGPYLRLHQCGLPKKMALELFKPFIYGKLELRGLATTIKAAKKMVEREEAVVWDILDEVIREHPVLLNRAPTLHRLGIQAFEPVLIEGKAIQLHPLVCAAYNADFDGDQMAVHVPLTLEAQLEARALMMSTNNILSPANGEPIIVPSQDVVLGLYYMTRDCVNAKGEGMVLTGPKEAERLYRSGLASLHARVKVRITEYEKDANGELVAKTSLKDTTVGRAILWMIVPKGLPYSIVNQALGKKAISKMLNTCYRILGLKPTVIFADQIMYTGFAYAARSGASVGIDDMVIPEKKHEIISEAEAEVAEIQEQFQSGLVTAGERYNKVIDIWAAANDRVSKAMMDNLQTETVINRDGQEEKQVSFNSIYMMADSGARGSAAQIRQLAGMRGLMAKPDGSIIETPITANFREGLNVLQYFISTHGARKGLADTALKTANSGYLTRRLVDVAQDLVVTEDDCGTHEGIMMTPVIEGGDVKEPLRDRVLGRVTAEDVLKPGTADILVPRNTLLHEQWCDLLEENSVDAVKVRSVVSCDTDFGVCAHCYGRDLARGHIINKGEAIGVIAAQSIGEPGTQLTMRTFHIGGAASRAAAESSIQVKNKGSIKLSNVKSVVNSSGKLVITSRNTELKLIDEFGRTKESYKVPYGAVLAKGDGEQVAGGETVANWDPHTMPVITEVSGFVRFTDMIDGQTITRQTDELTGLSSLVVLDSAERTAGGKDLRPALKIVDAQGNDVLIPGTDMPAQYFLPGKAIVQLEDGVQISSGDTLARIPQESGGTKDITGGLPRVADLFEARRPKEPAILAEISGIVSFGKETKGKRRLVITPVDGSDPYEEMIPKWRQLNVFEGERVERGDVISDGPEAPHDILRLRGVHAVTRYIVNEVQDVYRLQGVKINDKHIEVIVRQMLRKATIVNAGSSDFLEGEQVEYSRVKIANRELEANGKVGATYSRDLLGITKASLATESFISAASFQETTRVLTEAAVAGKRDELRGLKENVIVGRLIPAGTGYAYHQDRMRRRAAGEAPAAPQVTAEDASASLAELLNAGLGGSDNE
UniProt Q93009, sequence (whole entry, unmodified, looked up): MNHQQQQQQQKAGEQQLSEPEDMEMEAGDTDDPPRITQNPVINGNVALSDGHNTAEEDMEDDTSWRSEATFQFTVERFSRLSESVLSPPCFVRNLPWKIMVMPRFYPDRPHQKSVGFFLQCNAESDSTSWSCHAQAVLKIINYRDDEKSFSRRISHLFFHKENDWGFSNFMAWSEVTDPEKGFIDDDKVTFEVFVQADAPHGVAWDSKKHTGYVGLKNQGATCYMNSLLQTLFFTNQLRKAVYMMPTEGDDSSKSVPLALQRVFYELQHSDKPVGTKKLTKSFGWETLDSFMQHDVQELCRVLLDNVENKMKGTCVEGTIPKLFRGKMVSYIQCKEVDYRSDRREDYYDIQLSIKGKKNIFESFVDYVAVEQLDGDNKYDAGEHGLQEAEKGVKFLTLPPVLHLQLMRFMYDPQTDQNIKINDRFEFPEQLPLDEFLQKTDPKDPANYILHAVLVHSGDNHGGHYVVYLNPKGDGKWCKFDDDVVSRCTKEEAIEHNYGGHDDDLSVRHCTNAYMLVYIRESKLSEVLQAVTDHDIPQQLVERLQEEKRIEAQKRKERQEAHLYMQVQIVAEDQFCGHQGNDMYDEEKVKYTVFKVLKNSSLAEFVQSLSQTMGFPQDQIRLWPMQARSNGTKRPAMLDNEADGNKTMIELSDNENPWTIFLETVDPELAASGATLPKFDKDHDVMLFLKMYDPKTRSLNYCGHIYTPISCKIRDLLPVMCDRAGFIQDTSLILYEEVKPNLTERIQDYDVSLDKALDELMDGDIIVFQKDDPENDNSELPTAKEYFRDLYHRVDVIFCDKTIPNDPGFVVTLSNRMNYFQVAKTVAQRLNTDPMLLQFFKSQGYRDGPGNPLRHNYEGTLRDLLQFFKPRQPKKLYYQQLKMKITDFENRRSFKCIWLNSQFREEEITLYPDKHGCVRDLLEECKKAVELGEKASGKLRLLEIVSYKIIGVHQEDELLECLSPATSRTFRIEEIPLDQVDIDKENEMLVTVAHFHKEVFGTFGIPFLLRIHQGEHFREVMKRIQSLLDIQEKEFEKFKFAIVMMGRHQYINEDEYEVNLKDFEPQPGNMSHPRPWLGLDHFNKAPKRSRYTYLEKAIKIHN

O=C(C[C@@H](C(F)F)n1ccc(F)n1)N1CCC(O)(Cn2cnc3c(cnn3-c3ccc(F)cc3)c2=O)CC1  binding enthalpy (Ubiquitin carboxyl-terminal hydrolase 7 (USP7, Homo sapiens, UniProt Q93009, V517Y); isothermal titration calorimetry; concentration not given, USP7 V517Y): -26.6 ± 2.05 kcal/mol
CCN1CCC[C@H]1CNC(=O)c1c(O)c(Cl)cc(Cl)c1OC  log2 fold change (MRGPRD (Homo sapiens, UniProt Q8TDS7); β-arrestin recruitment, TANGO luminescence; concentration not given; baseline: basal luminescence): 0.032
Nc1nc2c(ncn2[C@@H]2O[C@H](COP(=O)(O)OP(=O)(O)OP(=O)(O)O)C[C@H]2O)c(=O)[nH]1  incorporation efficiency (DNA-directed RNA polymerase subunit beta' / DNA-directed RNA polymerase subunit beta (rpoC/rpoB, Escherichia coli, UniProt P0A8T7+P0A8V2); RNA extension, denaturing gel; Escherichia coli, elongation complex, 6-MI template; 5 µM, 10 min, 25 °C): 87%
c1cncc(OC[C@H]2CN(CCN3CCc4ccccc43)CCO2)c1  inhibition (D(4) dopamine receptor (DRD4, Homo sapiens, UniProt P21917); radioligand binding; concentration not given, added: [3H]N-methylspiperone): 61.8%
Nc1ncnc2c1ncn2[C@@H]1O[C@H](COP(=O)(O)CP(=O)(O)OP(=O)(O)O)[C@@H](O)[C@H]1O  calcium influx (P2X purinoceptor 1 (P2RX1, Homo sapiens, UniProt P51575, E282A); calcium influx; 316 nM; baseline: ionomycin response): 97.3% and 100%
Cn1cc(-c2ccc(-c3cncc(Cl)c3N3CCC4(CCNC4=O)CC3)cc2)cn1  fold change in expression (COLO 205; microarray, refers to: SPIB; concentration not given, 6 h, gene set SPI-B; baseline: untreated cells): -3.55
Nc1ncnc2c1ncn2[C@@H]1O[C@H](COP(=O)(O)OP(=O)(O)O)[C@@H](O)[C@H]1O  ΔH (GUK1 (Homo sapiens, UniProt Q16774); ITC; molar ratio 3.506): -0.132 kcal/mol
C[C@H]1O[C@@H](O[C@H]2CC[C@@]3(C)[C@@H](CC[C@]4(C)[C@@H]3C=CC3=C5CC(C)(C)CC[C@]5(CO)[C@@H](O)C[C@]34C)[C@]2(C)CO)[C@H](O)[C@@H](O[C@@H]2O[C@H](CO)[C@@H](O)[C@H](O)[C@H]2O)[C@H]1O  MST normalised fluorescence (NAD-dependent protein deacetylase sirtuin-1 (SIRT1, Homo sapiens, UniProt Q96EB6); binding, microscale thermophoresis; 173 nM): 884 a.u.
Nc1ncnc2c1ncn2[C@H]1C[C@H](O)[C@@H](COP(=O)(O)OP(=O)(O)OP(=O)(O)O)O1  Kd (T1, ssDNA, aptamer; molecular beacon fluorescence quenching): 2600 nM
O=C(O)c1ccccc1Nc1cccc(C(F)(F)F)c1  ΔBRET (Taste receptor type 2 member 14 (TAS2R14, Homo sapiens, UniProt Q9NYV8); G-protein dissociation, TRUPATH gustducin BRET; 300 nM, wild-type receptor, unit not given; baseline: vehicle): 0.00115 and 0.000881 and 0.00574 and 0.00979 and 0.0449 and 0.014 and 0.0102
CCCC[C@@H]1NC(=O)[C@H](Cc2ccc(O)cc2)NC(=O)[C@@H]2CCCN2C(=O)[C@H](CC(=O)O)NC(=O)[C@H](C)NC(=O)[C@H](Cc2ccccc2)NC(=O)[C@@H]2CSCCC(=O)N3CN(CN(C3)C(=O)CCSC[C@@H](C(=O)N[C@@H](C)C(N)=O)NC1=O)C(=O)CCSC[C@H](NC(C)=O)C(=O)N[C@@H](CC(C)(C)C)C(=O)N1CCC[C@H]1C(=O)N[C@@H](CCC(=O)O)C(=O)N[C@H](CCCCNC(=O)CCc1cn(CCOCCOCCOCCOCCOCCC(=O)NCCCC[C@H]3NC(=O)[C@H](Cc4cccc5ccccc45)NC(=O)[C@@H]4CCCN4C(=O)CCSCCC(=O)N4CN5CN(C4)C(=O)CCSC[C@H](NC3=O)C(=O)N[C@@H](CCSC)C(=O)N[C@@H](CCCCNC(=N)N)C(=O)N[C@@H](CC(=O)O)C(=O)N[C@@H](Cc3c[nH]c4ccccc34)C(=O)N[C@@H](CO)C(=O)N[C@@H]([C@@H](C)O)C(=O)N3CCC[C@H]3C(=O)N3C[C@H](O)C[C@H]3C(=O)N[C@@H](Cc3c[nH]c4ccccc34)C(=O)N[C@H](C(N)=O)CSCCC5=O)nn1)C(=O)N1CCC[C@H]1C(=O)N[C@@H](Cc1ccc(O)cc1)C(=O)N2  Emax (Tumor necrosis factor receptor superfamily member 9/Nectin-4 (Homo sapiens, UniProt Q07011+Q96NY8); reporter gene, agonist; HT-1376 coculture with reporter cells; baseline: background): 43 fold
CC(=O)N[C@H]1[C@@H](OC(C)C(N)C(=O)O)O[C@H](CO[C@]2(C(=O)O)C[C@H](O)[C@@H](NC(C)=O)[C@H]([C@H](O)[C@H](O)CO)O2)[C@H](O)[C@@H]1O (stereo partly shown)  ΔG (CLEC10A, carbohydrate recognition domain (Homo sapiens, UniProt Q8IUN9); binding to carbohydrate recognition domain, isothermal titration calorimetry; 293 K): -6.2 ± 0.1 kcal/mol
NC(=O)C[C@H](N)C(=O)O  ΔH (Methyl-accepting chemotaxis protein, ligand-binding domain (Pectobacterium atrosepticum, UniProt Q6D6I9); isothermal titration calorimetry; SCRI1043; pH 6.0, 25 °C, added: 30 µM PacC ligand-binding domain): -0.6 ± 0.1 kcal/mol

Some of these lines once more:
CCCC[C@@H]1NC(=O)[C@H](Cc2ccc(O)cc2)NC(=O)[C@@H]2CCCN2C(=O)[C@H](CC(=O)O)NC(=O)[C@H](C)NC(=O)[C@H](Cc2ccccc2)NC(=O)[C@@H]2CSCCC(=O)N3CN(CN(C3)C(=O)CCSC[C@@H](C(=O)N[C@@H](C)C(N)=O)NC1=O)C(=O)CCSC[C@H](NC(C)=O)C(=O)N[C@@H](CC(C)(C)C)C(=O)N1CCC[C@H]1C(=O)N[C@@H](CCC(=O)O)C(=O)N[C@H](CCCCNC(=O)CCc1cn(CCOCCOCCOCCOCCOCCC(=O)NCCCC[C@H]3NC(=O)[C@H](Cc4cccc5ccccc45)NC(=O)[C@@H]4CCCN4C(=O)CCSCCC(=O)N4CN5CN(C4)C(=O)CCSC[C@H](NC3=O)C(=O)N[C@@H](CCSC)C(=O)N[C@@H](CCCCNC(=N)N)C(=O)N[C@@H](CC(=O)O)C(=O)N[C@@H](Cc3c[nH]c4ccccc34)C(=O)N[C@@H](CO)C(=O)N[C@@H]([C@@H](C)O)C(=O)N3CCC[C@H]3C(=O)N3C[C@H](O)C[C@H]3C(=O)N[C@@H](Cc3c[nH]c4ccccc34)C(=O)N[C@H](C(N)=O)CSCCC5=O)nn1)C(=O)N1CCC[C@H]1C(=O)N[C@@H](Cc1ccc(O)cc1)C(=O)N2  Emax (Tumor necrosis factor receptor superfamily member 9/Nectin-4 (Homo sapiens, UniProt Q07011+Q96NY8); reporter gene, agonist; HT-1376 coculture with reporter cells; baseline: background): 43 fold
